# Assay results collected from several papers.
# Each line is one published result; not all experiments were run side by side. Numbers after ± are the reported error.
# Organism: Salmonella typhimurium
SMILES,assay,test system,conditions,scale,measurement,value
COc1cccc(-c2n[nH]c(SCc3ccccn3)n2)c1OC,"Ames test, plate incorporation",TA98,"0.25 mg/plate, with rat liver S9",,revertant colonies per plate,26
Cc1cc(C(=O)NC(C)(C)COc2cccc3c2C(N)=NS(=O)(=O)N3)cc(C)n1,"Ames test, confirmatory",TA100,"5000 µg/plate, added: rat liver S9",baseline: solvent control,revertant ratio,1
CNC(=O)c1c(N(C)N=O)ncn1C,"mutagenicity, Ames plate incorporation",TA98,"500 µg/plate, without S9, methanol",,revertant colonies per plate,24.7 ± 6
O=[N+]([O-])c1ccc(N2CCN(CCC(O)c3ccc(F)cc3)CC2)c(C(F)(F)F)c1 (stereo not drawn),"SOS response, SOS/umu test","TA1535/pSK1002, TGA medium","0.000244 mg/mL, 4 h, without S9",baseline: untreated,induction factor,0.8
CN(CC(C)(C)C)N=O,"mutagenicity, Ames plate incorporation",TA100,"50 µg/plate, without S9, methanol",,revertant colonies per plate,168 ± 8
Fc1ccc(C2=CCNCC2)cc1,SOS/umu test,TA1535/pSK1002,"0.125 mg/mL, 4 h, without S9, full range",,survival,96.5%
CN(N=O)c1ccc(F)cc1,"mutagenicity, Ames plate incorporation",TA98,"5000 µg/plate, 3 d, without S9, methanol",,revertant colonies per plate,10.7 ± 3
O=[N+]([O-])c1ccc(N2CCC(NCCC(O)c3ccc(F)c4ccccc34)CC2)c(C(F)(F)F)c1 (stereo not drawn),SOS/umu test,"TA1535/pSK1002, TGA medium","0.001 mg/mL, 4 h, added: rat liver S9",,survival,121%
CC(=O)N1CCC(C(=O)N2CCN3C(=O)c4cc(-c5ccccc5)ccc4NC(=O)C3C2)CC1 (stereo not drawn),,TA1535,15.8 µg/plate,,revertants per plate,14.5

# Excerpt of the above:
SMILES,assay,test system,conditions,scale,measurement,value
Cc1cc(C(=O)NC(C)(C)COc2cccc3c2C(N)=NS(=O)(=O)N3)cc(C)n1,"Ames test, confirmatory",TA100,"5000 µg/plate, added: rat liver S9",baseline: solvent control,revertant ratio,1
